Experimental data of several laboratories.
Each numbered part is a random draw from the data of one study; scales do not carry over between parts. Changes are numbered by the printed parent chain.

Series 1
Target: CCNE2, cyclin fold, Cln2 fusion (human)
Technique: yeast growth competition, sequencing
Medium: yeast
Setting: strong parent motif
Reference: not given
Direction: higher = stronger binding
Quantity: normalised enrichment score
Parent: E2F1 docking peptide (human); PPVKRRLDLETDH
Substitution = PPVKRRLDLETDQ [H13Q]; result = 1.14
Substitution = PPVKRRLTLETDH [D8T]; result = 1.78
Substitution = PPVKRRLDLETMH [D12M]; result = 2.08
Substitution = KPVKRRLDLETDH [P1K]; result = 1.59

Series 2
Target: Ras GTPase-activating protein-binding protein 1, RRM domain (G3BP1, Homo sapiens, UniProt Q13283)
Chain of UniProt Q13283 (whole entry, looked up): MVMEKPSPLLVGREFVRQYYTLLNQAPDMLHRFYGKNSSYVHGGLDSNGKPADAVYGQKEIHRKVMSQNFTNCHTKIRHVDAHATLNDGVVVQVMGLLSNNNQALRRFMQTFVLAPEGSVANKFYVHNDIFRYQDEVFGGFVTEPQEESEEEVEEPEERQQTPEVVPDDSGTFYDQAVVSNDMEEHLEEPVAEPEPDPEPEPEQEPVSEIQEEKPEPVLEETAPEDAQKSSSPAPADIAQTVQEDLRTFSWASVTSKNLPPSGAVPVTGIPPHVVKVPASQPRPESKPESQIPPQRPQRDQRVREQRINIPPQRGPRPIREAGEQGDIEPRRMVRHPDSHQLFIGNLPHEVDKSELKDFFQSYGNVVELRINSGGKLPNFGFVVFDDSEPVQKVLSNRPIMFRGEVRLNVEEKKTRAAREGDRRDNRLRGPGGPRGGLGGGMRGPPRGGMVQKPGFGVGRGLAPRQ
Technique: RNA Bind-n-Seq
Molecule type: RNA
Medium: in vitro
Concentration: 1 µM
Setting: whole 134-nt RNA, ends assumed
With: 150 mM KCl
Reference: input library
Direction: higher = stronger binding
Quantity: log2 enrichment
Oligonucleotide = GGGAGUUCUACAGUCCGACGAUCCAAGUCCUGUGCUACACAUCGUAUGUACCGAAUCGGAAAAAAAGGAGGUUUUUGGAAAGUAUUAUGUUACGCCGUUCGGAUCUGCACUUCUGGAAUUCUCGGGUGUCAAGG; result = -0.107
Oligonucleotide = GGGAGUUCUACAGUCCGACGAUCACCAUGCAGGUGGGCAUCUUUGGGAAGUGGGGCAAGGGGGGGAUAGUGAGGGGGGUAACACUUUGGGAACAGGUGGUCCCAGGUCGUUUCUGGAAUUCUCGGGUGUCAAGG; result = 0.993
Oligonucleotide = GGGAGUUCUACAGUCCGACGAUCCCUCAAGUCCUGUGCUACACAUCGUAUGUACCGAAUCGGGGAGGAGGGGAGGAAAGUAUUAUGUUACGCCGUUCGGAUCUGCACUUCCAGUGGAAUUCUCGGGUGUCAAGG; result = -0.167
Oligonucleotide = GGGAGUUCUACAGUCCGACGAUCUCCUGUGCUACACAUCGUAUGUACCGAAUCAAAUUUUUAAAUUUUUUUAAACCCCCAAAAAAGUAUUAUGUUACGCCGUUCGGAUCUGCAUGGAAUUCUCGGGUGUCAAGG; result = -0.875
Oligonucleotide = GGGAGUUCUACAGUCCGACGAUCUCCUGUGCUACACAUCGUAUGUACCGAAUCGGCCCCCCGGGCCCCCCGGGCCCCCCGGGGAAAGUAUUAUGUUACGCCGUUCGGAUCUGCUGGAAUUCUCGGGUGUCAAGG; result = -0.478
Oligonucleotide = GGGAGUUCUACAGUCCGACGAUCAGUCCUGUGCUACACAUCGUAUGUACCGAAUCGGCCCCCGGCCCCCGGCCCCCGGGGAAAGUAUUAUGUUACGCCGUUCGGAUCUGCACUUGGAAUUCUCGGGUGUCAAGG; result = -0.658
Oligonucleotide = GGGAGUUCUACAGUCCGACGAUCUGCUGAAGCUCACACCCGUGGACCACCCAGACUGCCUGCCGCUACAGGAUGCCCUCCGCAUCUCCCAGGACUUCUUUCCGGCAUCAGUGUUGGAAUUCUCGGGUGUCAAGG; result = -0.407
Oligonucleotide = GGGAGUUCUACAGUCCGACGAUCCCUGUGCUACACAUCGUAUGUACCGAAUCGGGGUUUUUUUGGGGUGGGGUUUUUUUGGGGAAAGUAUUAUGUUACGCCGUUCGGAUCUGCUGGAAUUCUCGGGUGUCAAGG; result = 0.353

Series 3
Target: RNA binding protein fox-1 homolog 2, RRM domain, GST-SBP tag (RBFOX2, Homo sapiens, UniProt O43251-10, residues 100-194)
Technique: RNA Bind-n-Seq
Molecule type: RNA
Medium: in vitro
Concentration: 365 nM
Setting: natural RNA segment, single round, ends assumed
Reference: no-protein control
Direction: higher = stronger binding
Quantity: RBNS enrichment (R)
Target sequence (chain): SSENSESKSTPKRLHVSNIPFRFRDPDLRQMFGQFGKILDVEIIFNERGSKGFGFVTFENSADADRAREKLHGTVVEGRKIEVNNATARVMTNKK
Oligonucleotide = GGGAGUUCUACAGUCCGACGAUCCAUUAGAAGGGACUUGGCCUGCCCUUUGGAACUGUGCCCUUGUAGAAGAAGUAAAGGACUGAAUCAUGCAGAGUGGCUUUUGCCGGACUCCGGGACACAAGAGUGGCAUGUGGAAUUCUCGGGUGCCAA; result = 1.38
Oligonucleotide = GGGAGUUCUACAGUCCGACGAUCACUAUAAUAAUCGGUUACUGUUAUAAAGUUUAAAAGGUGGUUUUAAUGUGAAUAGCAAAUUCUGGUAUAUCGUGACUAACGCUUAAGAAUGCCUGUCUUUGAGAGGAAGGUGGAAUUCUCGGGUGCCAA; result = 1
Oligonucleotide = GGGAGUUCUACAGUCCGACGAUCCAUGUGUACUGCAGUUGUGCCUUUUCUACAACACUGCAUUGAAUAAACUUGUCCGAAGUAUCGUUUUUCAGAGUCUGGGAUGCCUAAUAAUUUCCUGGUUUUCCUCUCGUUGGAAUUCUCGGGUGCCAA; result = 0.356
Oligonucleotide = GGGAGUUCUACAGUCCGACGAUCCGGUCAGAUGGCCAUUUAUCAGCAUAUUUAUUUGUAUUUUCUCAGCAGAUAGUAAGGUACAACUGUGUUUUCUCAAUUGUCUCGAAGAACCAGAGUUCUUAAGUGGCCCAUGGAAUUCUCGGGUGCCAA; result = 0.594
Oligonucleotide = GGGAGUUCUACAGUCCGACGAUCCUCAGGCAAUCUGCCCGCCUUGGCCUCCCAAAGUGCUAGGAUUACAGGUAUGAGCCACCAUGCCCGGCUGGCAGUUGUAUUUUUUAAAGCCCUUCUGAUGAUUCCAAUGUUGGAAUUCUCGGGUGCCAA; result = 0.462
Oligonucleotide = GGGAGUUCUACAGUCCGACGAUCCGUGGGGACUUUUCCUCUGGAAAAUACUUUGCCUUCAGGUAUUUGAUUGAAAUAUUUAAGAGUAUUUAAGCUUUCCAGUAUCCUGUAUCAUGUGUAAAUGGAAAAUAUGUUGGAAUUCUCGGGUGCCAA; result = 0.41

Other studies, line by line
Substance = PhoQ, residues 284 288 289 292 302 303 SNGLAW; target = PhoP, residues 12 14 15 18 19 NIMAP (Escherichia coli, UniProt P23836); assay = Sort-seq, refers to: YFP reporter; system = E. coli; setting = PhoQ-PhoP variant library, with: 10 µM Mg2+; how to read = reference: high Mg2+ state, higher = stronger signaling; quantity = fold induction; result = 0.995
